Results from different studies.
Protocols differ between the studies behind these lines. ± marks the error that the study gave.

SMILES | assay | system | setting | scale | measurement | result
O=C1NC2(CC2)COc2ncc(F)cc2[C@H]2COCCN2c2ccn3ncc1c3n2 | – | Sprague-Dawley rats, female, blood | oral, 10 mg/kg/day, end of recovery, 4-week subacute toxicity | – | eosinophil percentage | 1.8 ± 0.58%
N#[11C]c1ccc(-c2csc(NN=C3CCCC3)n2)cc1 | dynamic PET/CT | C57BL/6 mouse, lung | intravenous, dose not given, 1.0 min | – | peak radioactivity uptake | 0.99 SUV
COCC1CN(C2CCN(c3cc(OC)c(Nc4ncc(Br)c(Nc5ccc6c(c5P(C)(C)=O)OCCO6)n4)cc3C)CC2)C1 | – | EGFR-mutant NSCLC patients | oral, 60 mg once daily | – | treatment-related AEs leading to death | 0%
CC(C)[C@@H]1NC(=O)CNC(=O)[C@H](CC(N)=O)NC(=O)[C@H](CCCNC(=N)N)NC(=O)[C@H](Cc2ccc(O)cc2)NC(=O)[C@H](C(C)C)NC(=O)[C@@H](NC(=O)[C@@H](NC(=O)[C@H](CC(N)=O)NC(=O)[C@H](Cc2c[nH]c3ccccc23)NC(=O)[C@H](C)NC(=O)[C@H](Cc2ccccc2)NC(=O)CNC(=O)[C@H](CCCCN)NC(=O)[C@H](Cc2ccccc2)NC(=O)[C@H](Cc2ccccc2)NC(=O)[C@H](CCCCN)NC(=O)OCC2c3ccccc3-c3ccccc32)C(C)C)CSSC[C@@H](C(=O)N[C@@H](Cc2c[nH]cn2)C(=O)N[C@@H](CCCNC(=N)N)C(=O)N[C@@H](CCCNC(=N)N)C(=O)N[C@@H](C)C(=O)N[C@@H](CC(N)=O)C(N)=O)NC(=O)[C@H](C(C)C)NC(=O)[C@H](CCCNC(=N)N)NC1=O | – | ICR mouse, blood | intramammary, 5 mg/kg, day 5, 3 d dosing | – | basophils | 1.55 ± 0.24%
O=C(c1cc(Cc2n[nH]c(=O)c3ccccc23)ccc1F)N1CC(CNC2CC2)C1 | – | Wistar Han rat, female, blood | oral, 60 mg/kg daily, 4 weeks | – | haematocrit | 31.5 ± 2.7%
CC[C@H](C)[C@H](NC(=O)[C@H](CCCCN)NC(=O)CNC(=O)[C@H](CC(C)C)NC(=O)[C@H](Cc1ccccc1)NC(=O)[C@H](CCCCN)NC(=O)[C@H](CO)NC(=O)[C@H](Cc1ccccc1)NC(=O)[C@H](Cc1c[nH]c2ccccc12)NC(=O)[C@H](CCC(N)=O)NC(=O)[C@@H](NC(=O)[C@H](Cc1ccccc1)NC(=O)CCCCCNC(=O)CN1CCN(CC(=O)O)CCN(CC(=O)O)CCN(CC(=O)O)CC1)C(C)C)C(=O)N[C@@H](CCC(=O)O)C(=O)N1CCC[C@H]1C(=O)N[C@@H](CC(=O)O)C(=O)N[C@H](C(=O)N[C@@H](CO)C(=O)N[C@@H](CCC(N)=O)C(=O)N[C@H](C(=O)N[C@@H](CCC(N)=O)C(=O)N[C@@H](CC(=O)O)C(=O)N1CCC[C@H]1C(=O)N[C@@H](CC(N)=O)C(=O)N[C@@H](CC(=O)O)C(=O)N[C@@H](CCC(N)=O)C(=O)N[C@@H](Cc1ccc(O)cc1)C(=O)N[C@@H](CCC(=O)O)C(=O)N1CCC[C@H]1C(=O)N[C@@H](Cc1ccccc1)C(=O)O)C(C)C)C(C)C [copper-64 labelled] | dynamic PET | mouse both sexes, CT26 tumour, untreated, tumour | intravenous, 100 µCi/mouse, 570 s | – | SUVmean | 0.86 SUV
CC(C)C[C@H](NC(=O)CNC(=O)[C@H](CCC(N)=O)NC(=O)[C@H](CC(C)C)NC(=O)[C@H](CC(C)C)NC(=O)[C@H](CCCNC(=N)N)NC(=O)[C@H](CCC(N)=O)NC(=O)[C@H](CC(C)C)NC(=O)[C@H](CCCNC(=N)N)NC(=O)[C@H](C)NC(=O)CNC(=O)[C@H](CCC(=O)O)NC(=O)[C@H](CCCNC(=N)N)NC(=O)[C@H](CC(C)C)NC(=O)[C@H](CCCNC(=N)N)NC(=O)[C@H](CO)NC(=O)[C@H](CC(C)C)NC(=O)[C@H](CCC(=O)O)NC(=O)[C@H](CO)NC(=O)[C@@H](NC(=O)[C@H](Cc1ccccc1)NC(=O)[C@@H](NC(=O)CNC(=O)[C@H](CC(=O)O)NC(=O)C(C)(C)NC(=O)[C@@H](N)Cc1c[nH]cn1)[C@@H](C)O)[C@@H](C)O)C(=O)N[C@@H](CC(C)C)C(=O)N[C@@H](CCC(N)=O)C(=O)NCC(=O)N[C@@H](CC(C)C)C(=O)N[C@H](C(=O)NCC(=O)N[C@@H](CCCCNC(=O)COCCOCCNC(=O)COCCOCCNC(=O)CC[C@H](NC(=O)CCCCCCCCCCCCCCCCC(=O)O)C(=O)O)C(N)=O)C(C)C | – | DIO C57BL/6J mice | sc, 300 nmol/kg twice daily, 8 days | baseline: vehicle | plasma lipase | no effect
CCN(CCCCOc1ccc(CCC(=O)N2CCC(Cc3ccccc3)CC2)cc1OC)Cc1ccccc1 | – | Sprague-Dawley rats, both sexes, urine | oral gavage, 25 mg/kg, 0 to 48 h | – | excreted amount | 3590 ± 601 ng
Cc1ccccc1-c1ccc(-c2nc(-c3ccc(CN(C)CCCC(=O)O)c([18F])c3)no2)cc1C(F)(F)F | – | rat, lung | 5 min | – | tracer uptake | 3.69 %ID/g
CC(C)(CCCC/C=C/CCCCCC(C)(C)C(=O)O)C(=O)O | – | ICR mice, both sexes | oral, dose not given, 5 h | – | plasma concentration | 12500 ng/mL
CC(C)[C@H](NC(=O)[C@@H](NC(=O)[C@H](CCCNC(=N)N)NC(=O)[C@H](CCCNC(=N)N)NC(=O)[C@H](CCCNC(=N)N)NC(=O)[C@H](CCC(N)=O)NC(=O)[C@H](CCCNC(=N)N)NC(=O)[C@H](CCCNC(=N)N)NC(=O)[C@H](CCCCN)NC(=O)[C@H](CCCCN)NC(=O)[C@H](CCCNC(=N)N)NC(=O)CN)[C@@H](C)O)C(=O)N[C@H](C(=O)N[C@@H](CO)C(=O)N1CCC[C@H]1C(=O)O)[C@@H](C)O | – | ICR mouse, male, right kidney | intranasal, 20 mg/kg daily, 4 weeks | – | kidney weight | 0.313 ± 0.027 g
CCCCCCCCCCCCCCCC(=O)N[C@@H](CCC(=O)NCCOCCOCCC(=O)NCCOCCOCCC(=O)NCCCC[C@H](NC(=O)[C@H](CC(=O)O)NC(=O)[C@H](CC(C)C)NC(=O)[C@H](Cc1ccc(O)cc1)NC(=O)[C@H](CCCCN)NC(=O)[C@H](CO)NC(=O)[C@H](Cc1ccc(O)cc1)NC(=O)[C@H](CC(=O)O)NC(=O)[C@H](CO)NC(=O)[C@@H](NC(=O)[C@H](Cc1ccccc1)NC(=O)[C@@H](NC(=O)CNC(=O)[C@H](CCC(N)=O)NC(=O)[C@@H](CO)NC(=O)[C@@H](N)Cc1c[nH]cn1)[C@@H](C)O)[C@@H](C)O)C(=O)N[C@@H](CCCNC(=N)N)C(=O)N[C@@H](CCCNC(=N)N)C(=O)N[C@@H](C)C(=O)N[C@@H](CCC(N)=O)C(=O)N[C@@H](CC(=O)O)C(=O)N[C@@H](Cc1ccccc1)C(=O)N[C@H](C(=O)N[C@@H](CCC(N)=O)C(=O)N[C@@H](Cc1c[nH]c2ccccc12)C(=O)N[C@@H](CC(C)C)C(=O)N[C@@H](CC(C)C)C(=O)N[C@@H](CC(N)=O)C(=O)N[C@H](C(=O)NCC(=O)NCC(=O)N1CCC[C@H]1C(=O)N[C@@H](CO)C(=O)N[C@@H](CO)C(=O)NCC(=O)N[C@@H](C)C(=O)N1CCC[C@H]1C(=O)N1CCC[C@H]1C(=O)N1CCC[C@H]1C(=O)N[C@@H](CO)C(N)=O)[C@@H](C)O)C(C)C)C(=O)O | – | rhesus monkey, plasma | subcutaneous, 20 µg/kg | – | bioavailability | 22%
CN1Cc2cc(Cl)ccc2-n2c(nnc2C2CCN(c3cccc([18F])n3)CC2)C1 | PET two-tissue compartment model | rhesus monkey, cerebellum | intravenous, dose not given, 90 min scan, baseline scan | – | total volume of distribution | 0.94 ± 0.36 mL/cm3
CC(C)C[C@@H](NC(=O)[C@@H](CCCNC(=N)N)NC(=O)[C@@H](Cc1c[nH]cn1)NC(=O)[C@@H](Cc1c[nH]c2ccccc12)NC(=O)[C@@H](Cc1c[nH]cn1)NC(=O)[C@@H](Cc1ccccc1)NC(=O)[C@H](NC(=O)[C@@H](Cc1ccc(O)cc1)NC(=O)CNC(=O)CNC(=O)CCOCCOCCOCCNC(=O)CN1CCN(CC(=O)O)CCN(CC(=O)O)CC1)[C@H](C)O)C(=O)N[C@H](CC(N)=O)C(=O)N1CCC[C@@H]1C(=O)O [gallium-68 labelled] | – | C57BL/6 mice, male | intravenous, 1.85 MBq, 120 min | baseline: tumour over muscle | tissue ratio | 7.26 ± 1.07
CSCC[C@H](N)C(=O)N[C@@H](C)C(=O)N[C@@H](Cc1c[nH]c2ccccc12)C(=O)N[C@@H](Cc1c[nH]cn1)C(=O)N[C@@H](CC(=O)O)C(=O)N[C@@H](CC(=O)O)C(=O)N[C@@H](CCC(=O)O)C(=O)N[C@@H](CCC(=O)O)C(=O)N[C@@H](Cc1ccccc1)C(=O)N[C@@H](C)C(=O)N[C@@H](CCCNC(=N)N)C(=O)N[C@@H](CCCNC(=N)N)C(=O)N[C@@H](CCCNC(=N)N)C(=O)N[C@@H](CCCNC(=N)N)C(=O)NCCCCCC(=O)NCCCCC(NC(=O)CCCCCNC(=O)[C@H](CCCNC(=N)N)NC(=O)[C@H](CCCNC(=N)N)NC(=O)[C@H](CCCNC(=N)N)NC(=O)[C@H](CCCNC(=N)N)NC(=O)[C@H](C)NC(=O)[C@H](Cc1ccccc1)NC(=O)[C@H](CCC(=O)O)NC(=O)[C@H](CCC(=O)O)NC(=O)[C@H](CC(=O)O)NC(=O)[C@H](CC(=O)O)NC(=O)[C@H](Cc1c[nH]cn1)NC(=O)[C@H](Cc1c[nH]c2ccccc12)NC(=O)[C@H](C)NC(=O)[C@@H](N)CCSC)C(=O)NCCCCC(NC(=O)C(CCCCNC(=O)CCCCCNC(=O)[C@H](CCCNC(=N)N)NC(=O)[C@H](CCCNC(=N)N)NC(=O)[C@H](CCCNC(=N)N)NC(=O)[C@H](CCCNC(=N)N)NC(=O)[C@H](C)NC(=O)[C@H](Cc1ccccc1)NC(=O)[C@H](CCC(=O)O)NC(=O)[C@H](CCC(=O)O)NC(=O)[C@H](CC(=O)O)NC(=O)[C@H](CC(=O)O)NC(=O)[C@H](Cc1c[nH]cn1)NC(=O)[C@H](Cc1c[nH]c2ccccc12)NC(=O)[C@H](C)NC(=O)[C@@H](N)CCSC)NC(=O)CCCCCNC(=O)[C@H](CCCNC(=N)N)NC(=O)[C@H](CCCNC(=N)N)NC(=O)[C@H](CCCNC(=N)N)NC(=O)[C@H](CCCNC(=N)N)NC(=O)[C@H](C)NC(=O)[C@H](Cc1ccccc1)NC(=O)[C@H](CCC(=O)O)NC(=O)[C@H](CCC(=O)O)NC(=O)[C@H](CC(=O)O)NC(=O)[C@H](CC(=O)O)NC(=O)[C@H](Cc1c[nH]cn1)NC(=O)[C@H](Cc1c[nH]c2ccccc12)NC(=O)[C@H](C)NC(=O)[C@@H](N)CCSC)C(N)=O (stereo partly shown) | – | C57BL/6 mouse female, heart | dose not given, 6 h | baseline: total | mean tissue distribution | 0.84%
CC(C)C[C@H](NC(=O)[C@H](Cc1ccc(O)cc1)NC(=O)[C@H](C)NC(=O)[C@@H](NC(=O)[C@H](CC(C)C)NC(=O)[C@H](C)NC(=O)[C@H](C)NC(=O)[C@H](CCCCN)NC(=O)CNC(=O)[C@@H](NC(=O)[C@H](Cc1c[nH]cn1)NC(=O)[C@H](CCCCN)NC(=O)CNC(=O)[C@@H](NC(=O)[C@H](Cc1c[nH]cn1)NC(=O)[C@@H](NC(=O)[C@H](C)NC(=O)[C@H](CCCCN)NC(=O)[C@H](CCCCN)NC(=O)[C@H](Cc1ccccc1)NC(=O)[C@H](Cc1c[nH]c2ccccc12)NC(=O)[C@H](CCCCN)NC(=O)CNC(=O)[C@H](Cc1c[nH]c2ccccc12)NC(=O)[C@@H](N)CCCNC(=N)N)[C@@H](C)O)C(C)C)C(C)C)[C@@H](C)O)C(N)=O | – | zebrafish embryos 4 hpf, E3 medium | 1 h | – | acute toxic concentration | 5 µM

A few entries again:
SMILES | assay | system | setting | scale | measurement | result
CC(C)[C@H](NC(=O)[C@@H](NC(=O)[C@H](CCCNC(=N)N)NC(=O)[C@H](CCCNC(=N)N)NC(=O)[C@H](CCCNC(=N)N)NC(=O)[C@H](CCC(N)=O)NC(=O)[C@H](CCCNC(=N)N)NC(=O)[C@H](CCCNC(=N)N)NC(=O)[C@H](CCCCN)NC(=O)[C@H](CCCCN)NC(=O)[C@H](CCCNC(=N)N)NC(=O)CN)[C@@H](C)O)C(=O)N[C@H](C(=O)N[C@@H](CO)C(=O)N1CCC[C@H]1C(=O)O)[C@@H](C)O | – | ICR mouse, male, right kidney | intranasal, 20 mg/kg daily, 4 weeks | – | kidney weight | 0.313 ± 0.027 g
CCCCCCCCCCCCCCCC(=O)N[C@@H](CCC(=O)NCCOCCOCCC(=O)NCCOCCOCCC(=O)NCCCC[C@H](NC(=O)[C@H](CC(=O)O)NC(=O)[C@H](CC(C)C)NC(=O)[C@H](Cc1ccc(O)cc1)NC(=O)[C@H](CCCCN)NC(=O)[C@H](CO)NC(=O)[C@H](Cc1ccc(O)cc1)NC(=O)[C@H](CC(=O)O)NC(=O)[C@H](CO)NC(=O)[C@@H](NC(=O)[C@H](Cc1ccccc1)NC(=O)[C@@H](NC(=O)CNC(=O)[C@H](CCC(N)=O)NC(=O)[C@@H](CO)NC(=O)[C@@H](N)Cc1c[nH]cn1)[C@@H](C)O)[C@@H](C)O)C(=O)N[C@@H](CCCNC(=N)N)C(=O)N[C@@H](CCCNC(=N)N)C(=O)N[C@@H](C)C(=O)N[C@@H](CCC(N)=O)C(=O)N[C@@H](CC(=O)O)C(=O)N[C@@H](Cc1ccccc1)C(=O)N[C@H](C(=O)N[C@@H](CCC(N)=O)C(=O)N[C@@H](Cc1c[nH]c2ccccc12)C(=O)N[C@@H](CC(C)C)C(=O)N[C@@H](CC(C)C)C(=O)N[C@@H](CC(N)=O)C(=O)N[C@H](C(=O)NCC(=O)NCC(=O)N1CCC[C@H]1C(=O)N[C@@H](CO)C(=O)N[C@@H](CO)C(=O)NCC(=O)N[C@@H](C)C(=O)N1CCC[C@H]1C(=O)N1CCC[C@H]1C(=O)N1CCC[C@H]1C(=O)N[C@@H](CO)C(N)=O)[C@@H](C)O)C(C)C)C(=O)O | – | rhesus monkey, plasma | subcutaneous, 20 µg/kg | – | bioavailability | 22%
